{"data": "Experimental data pooled from the literature", "note": "A part holds a random share of what one study measured. Values joined by “and” are separate records of one study, mostly repeats; a detail may differ.", "UniProt Q13557, sequence (whole entry, looked up)": "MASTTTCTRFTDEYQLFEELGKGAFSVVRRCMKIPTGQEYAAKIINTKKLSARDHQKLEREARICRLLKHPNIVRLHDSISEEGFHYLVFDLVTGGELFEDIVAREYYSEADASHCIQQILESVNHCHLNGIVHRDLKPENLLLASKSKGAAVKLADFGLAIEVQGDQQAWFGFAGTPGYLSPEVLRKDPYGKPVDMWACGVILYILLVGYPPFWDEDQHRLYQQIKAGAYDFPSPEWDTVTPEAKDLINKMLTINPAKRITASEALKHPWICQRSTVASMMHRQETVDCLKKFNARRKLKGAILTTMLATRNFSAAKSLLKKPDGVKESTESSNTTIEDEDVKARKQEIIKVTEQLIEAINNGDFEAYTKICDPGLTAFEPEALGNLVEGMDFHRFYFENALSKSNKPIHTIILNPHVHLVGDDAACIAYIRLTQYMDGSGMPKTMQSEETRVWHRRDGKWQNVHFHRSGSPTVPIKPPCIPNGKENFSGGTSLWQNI", "UniProt Q02156, sequence (whole entry, looked up)": "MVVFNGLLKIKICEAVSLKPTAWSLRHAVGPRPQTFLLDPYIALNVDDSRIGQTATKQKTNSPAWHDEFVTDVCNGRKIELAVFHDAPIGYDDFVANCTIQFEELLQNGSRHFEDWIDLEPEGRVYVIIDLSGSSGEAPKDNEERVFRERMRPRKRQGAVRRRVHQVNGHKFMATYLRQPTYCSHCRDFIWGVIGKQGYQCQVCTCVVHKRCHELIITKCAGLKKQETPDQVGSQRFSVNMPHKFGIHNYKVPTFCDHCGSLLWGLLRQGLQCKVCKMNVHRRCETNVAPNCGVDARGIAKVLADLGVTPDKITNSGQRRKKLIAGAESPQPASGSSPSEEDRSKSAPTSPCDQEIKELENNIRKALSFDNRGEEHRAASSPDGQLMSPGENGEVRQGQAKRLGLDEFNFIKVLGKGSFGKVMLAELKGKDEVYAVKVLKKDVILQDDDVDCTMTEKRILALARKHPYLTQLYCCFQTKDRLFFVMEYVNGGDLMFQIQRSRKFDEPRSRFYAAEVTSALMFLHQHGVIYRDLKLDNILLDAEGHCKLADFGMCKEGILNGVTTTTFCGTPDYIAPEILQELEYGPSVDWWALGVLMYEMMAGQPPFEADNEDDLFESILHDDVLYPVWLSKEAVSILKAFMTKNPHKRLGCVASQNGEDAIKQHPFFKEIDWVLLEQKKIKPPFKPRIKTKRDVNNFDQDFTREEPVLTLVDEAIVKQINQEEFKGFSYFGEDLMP", "UniProt Q8WU08, sequence (whole entry, looked up)": "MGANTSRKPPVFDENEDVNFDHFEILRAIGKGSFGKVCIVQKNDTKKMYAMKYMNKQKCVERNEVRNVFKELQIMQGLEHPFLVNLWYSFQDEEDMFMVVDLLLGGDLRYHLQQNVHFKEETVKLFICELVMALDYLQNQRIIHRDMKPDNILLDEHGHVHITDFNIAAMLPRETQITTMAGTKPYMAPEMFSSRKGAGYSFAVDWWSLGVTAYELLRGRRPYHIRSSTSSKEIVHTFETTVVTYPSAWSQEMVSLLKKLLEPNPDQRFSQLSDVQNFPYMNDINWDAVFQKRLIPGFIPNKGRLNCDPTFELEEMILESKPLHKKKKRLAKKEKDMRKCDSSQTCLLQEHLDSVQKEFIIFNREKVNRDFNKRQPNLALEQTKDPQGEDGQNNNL", "UniProt Q00535, sequence (whole entry, looked up)": "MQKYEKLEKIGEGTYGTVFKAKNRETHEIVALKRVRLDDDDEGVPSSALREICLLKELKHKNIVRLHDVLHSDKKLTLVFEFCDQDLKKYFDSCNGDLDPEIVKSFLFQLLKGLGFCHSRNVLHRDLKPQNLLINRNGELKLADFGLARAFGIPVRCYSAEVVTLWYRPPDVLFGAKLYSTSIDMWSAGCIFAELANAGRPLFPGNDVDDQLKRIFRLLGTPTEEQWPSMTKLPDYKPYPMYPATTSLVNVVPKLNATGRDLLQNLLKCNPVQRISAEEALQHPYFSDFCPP", "UniProt P45984, sequence (whole entry, looked up)": "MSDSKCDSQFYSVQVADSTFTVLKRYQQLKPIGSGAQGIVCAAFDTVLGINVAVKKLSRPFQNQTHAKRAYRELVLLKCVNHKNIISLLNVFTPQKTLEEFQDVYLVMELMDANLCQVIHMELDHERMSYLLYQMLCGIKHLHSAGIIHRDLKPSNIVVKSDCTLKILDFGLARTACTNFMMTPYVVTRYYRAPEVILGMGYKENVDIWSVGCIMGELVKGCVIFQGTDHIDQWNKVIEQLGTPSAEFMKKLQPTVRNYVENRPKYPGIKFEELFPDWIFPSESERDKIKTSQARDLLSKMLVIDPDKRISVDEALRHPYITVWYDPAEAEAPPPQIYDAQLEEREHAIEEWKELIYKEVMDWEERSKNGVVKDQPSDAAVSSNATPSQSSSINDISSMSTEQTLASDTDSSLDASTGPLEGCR", "UniProt Q13976, sequence (whole entry, looked up)": "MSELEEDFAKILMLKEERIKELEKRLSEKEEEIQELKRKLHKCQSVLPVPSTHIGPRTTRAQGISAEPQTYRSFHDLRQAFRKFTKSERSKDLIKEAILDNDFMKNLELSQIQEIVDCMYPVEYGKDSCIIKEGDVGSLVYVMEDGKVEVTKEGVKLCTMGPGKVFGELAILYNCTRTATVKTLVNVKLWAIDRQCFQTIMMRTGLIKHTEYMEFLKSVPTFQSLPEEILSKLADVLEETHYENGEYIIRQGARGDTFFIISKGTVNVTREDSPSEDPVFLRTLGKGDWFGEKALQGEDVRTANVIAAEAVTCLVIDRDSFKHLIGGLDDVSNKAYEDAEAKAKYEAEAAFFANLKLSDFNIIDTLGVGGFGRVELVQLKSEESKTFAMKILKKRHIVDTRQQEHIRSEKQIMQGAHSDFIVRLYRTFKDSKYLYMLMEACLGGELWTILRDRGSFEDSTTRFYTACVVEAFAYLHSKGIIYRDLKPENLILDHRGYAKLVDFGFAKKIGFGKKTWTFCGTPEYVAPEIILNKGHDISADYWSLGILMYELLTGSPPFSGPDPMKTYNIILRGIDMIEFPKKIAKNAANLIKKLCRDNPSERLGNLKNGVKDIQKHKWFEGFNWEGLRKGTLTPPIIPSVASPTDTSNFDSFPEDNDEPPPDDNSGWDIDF", "UniProt O94804, sequence (whole entry, looked up)": "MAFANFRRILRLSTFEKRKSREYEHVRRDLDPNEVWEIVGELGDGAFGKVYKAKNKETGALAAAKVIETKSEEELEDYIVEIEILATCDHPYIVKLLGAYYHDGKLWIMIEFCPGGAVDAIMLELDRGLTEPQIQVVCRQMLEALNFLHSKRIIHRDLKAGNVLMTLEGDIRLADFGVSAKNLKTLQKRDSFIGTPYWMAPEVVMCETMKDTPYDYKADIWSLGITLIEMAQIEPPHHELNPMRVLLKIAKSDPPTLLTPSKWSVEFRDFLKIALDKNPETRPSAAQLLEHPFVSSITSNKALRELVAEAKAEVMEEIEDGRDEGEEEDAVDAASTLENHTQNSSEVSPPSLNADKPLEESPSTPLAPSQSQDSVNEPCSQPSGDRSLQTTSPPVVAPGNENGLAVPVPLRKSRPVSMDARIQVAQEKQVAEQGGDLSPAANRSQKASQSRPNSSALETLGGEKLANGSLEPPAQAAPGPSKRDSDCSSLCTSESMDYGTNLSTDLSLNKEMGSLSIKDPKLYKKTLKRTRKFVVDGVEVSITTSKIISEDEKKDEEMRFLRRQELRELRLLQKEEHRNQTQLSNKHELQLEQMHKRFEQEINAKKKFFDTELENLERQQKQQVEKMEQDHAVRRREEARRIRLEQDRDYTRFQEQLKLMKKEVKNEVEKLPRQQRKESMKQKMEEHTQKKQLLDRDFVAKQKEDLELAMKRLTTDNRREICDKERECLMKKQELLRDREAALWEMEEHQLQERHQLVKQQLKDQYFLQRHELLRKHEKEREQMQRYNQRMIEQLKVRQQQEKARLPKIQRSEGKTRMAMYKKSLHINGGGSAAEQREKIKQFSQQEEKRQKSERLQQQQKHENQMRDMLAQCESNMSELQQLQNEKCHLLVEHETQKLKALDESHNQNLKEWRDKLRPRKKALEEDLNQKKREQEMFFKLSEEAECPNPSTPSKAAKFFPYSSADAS"}
{"data": "Block 1", "effect on": "AlphaScreen signal", "method": "AlphaScreen counter screen", "medium": "His6 peptide without bromodomain", "concentration": "50 µM", "setting": "assay interference check"}
{"Structure (SMILES)": "COC(=O)CCC(=O)NNC(=O)c1c(O)c2ccccc2[nH]c1=O", "inhibition [%]": 17.1}
{"Structure (SMILES)": "Cc1cc(C(=O)C(C#N)=Cc2ccncc2)c(C)n1-c1ccccc1F", "inhibition [%]": 37.4}
{"Structure (SMILES)": "CC1(C)CNc2cc(NC(=O)c3cccnc3NCc3ccncc3)ccc21", "inhibition [%]": 53.9}
{"Structure (SMILES)": "CCN(CC)c1ccc(Nc2nc(-c3c(C)nc4ccccn34)cs2)cc1", "inhibition [%]": 96.8}
{"Structure (SMILES)": "CN1CCN(c2nccn3c(-c4ccoc4)cnc23)CC1", "inhibition [%]": 21.1}
{"Structure (SMILES)": "Nc1ccccc1NC(=O)CSc1nc2ccccc2s1", "inhibition [%]": 17.1}
{"data": "Block 2", "Compound": "Cc1nc(-c2ccccc2)c(-c2ccncc2)o1", "effect on": "enzyme activity", "action": "inhibitor", "concentration": "0.5 µM", "reference": "control"}
{"target": "cGMP-dependent protein kinase 1, isoform beta (PRKG1, Homo sapiens, UniProt Q13976)", "remaining activity [%]": 96.1}
{"target": "Protein kinase C alpha type (PRKCA, Homo sapiens, UniProt P17252)", "remaining activity [%]": 98.3}
{"target": "Cyclin-dependent kinase 5, with p25 (CDK5, Homo sapiens, UniProt Q00535)", "remaining activity [%]": 97}
{"target": "Calcium/calmodulin-dependent protein kinase type II subunit delta (CAMK2D, Homo sapiens, UniProt Q13557)", "remaining activity [%]": 94.2}
{"target": "Death-associated protein kinase 1 (DAPK1, Homo sapiens, UniProt P53355)", "remaining activity [%]": 124}
{"target": "Death-associated protein kinase 2 (DAPK2, Homo sapiens, UniProt Q9UIK4)", "remaining activity [%]": 106}
{"target": "Serine/threonine-protein kinase STK11 (STK11, Homo sapiens, UniProt Q15831)", "remaining activity [%]": 98.4}
{"target": "Serine/threonine-protein kinase 10 (STK10, Homo sapiens, UniProt O94804)", "remaining activity [%]": 96.9}
{"target": "TGF-beta receptor type-1 (TGFBR1, Homo sapiens, UniProt P36897)", "remaining activity [%]": 102}
{"target": "Mitogen-activated protein kinase 9 (MAPK9, Homo sapiens, UniProt P45984)", "remaining activity [%]": 98.2}
{"target": "Calcium/calmodulin-dependent protein kinase kinase 2 (CAMKK2, Homo sapiens, UniProt Q96RR4)", "remaining activity [%]": 105}
{"data": "Block 3", "Structure (SMILES)": "CCc1ccccc1C(=O)Nc1n[nH]c2c(C)c(F)c(C3C(C#N)=C(C)N(C)C(C)=C3C#N)cc12", "method": "competition with immobilised ligand", "concentration": "1 µM"}
{"target": "Protein kinase C epsilon type (PRKCE, Homo sapiens, UniProt Q02156)", "effect on": "cell-free assay", "remaining binding [%]": 19}
{"target": "Serine/threonine-protein kinase DCLK1 (DCLK1, Homo sapiens, UniProt O15075)", "effect on": "cell-free assay", "remaining binding [%]": 87}
{"target": "Tyrosine-protein kinase ZAP-70 (ZAP70, Homo sapiens, UniProt P43403)", "effect on": "cell-free assay", "remaining binding [%]": 100}
{"target": "Serine/threonine-protein kinase 32A (STK32A, Homo sapiens, UniProt Q8WU08)", "effect on": "binding", "remaining binding [%]": 100}
{"target": "eIF-2-alpha kinase GCN2, C-terminal kinase domain (EIF2AK4, Homo sapiens, UniProt Q9P2K8, S808G)", "effect on": "cell-free assay", "remaining binding [%]": 43}
{"data": "Block 4", "SMILES": "COc1ccc(-c2c(Nc3ccccn3)[nH]c3c(C4=CCCCC4)c(-c4ccccc4)nn3c2=O)cc1", "medium": "plasma"}
{"assay": "LC-MS/MS, measured: S-adenosylmethionine", "test system": "human cancer patients", "conditions": "200 mg BID, 8 h, median, cycle 1 day 200", "plasma concentration": "12 ng/mL"}
{"assay": "LC-MS/MS, measured: methionine", "test system": "human cancer patients", "conditions": "QD, dose not given, 0 h, mean, cycle 1 day 50", "plasma concentration": "70400 ng/mL"}
{"assay": "LC-MS/MS, measured: S-adenosylmethionine", "test system": "human cancer patients", "conditions": "50 mg QD, 0 h, median, cycle 1 day 50", "plasma concentration": "19 ng/mL"}
{"assay": "LC-MS/MS, measured: S-adenosylmethionine", "test system": "human cancer patients", "conditions": "200 mg BID, 2 h, mean, cycle 1 day 200", "plasma concentration": "10.5 ng/mL"}
{"assay": "measured: S-adenosylmethionine", "test system": "human", "conditions": "oral, 200 mg twice daily, cycle 1 day 15", "plasma concentration": "13 ng/mL and 6.66 ng/mL and 11.8 ng/mL"}
{"assay": "LC-MS/MS, measured: methionine", "test system": "human cancer patients", "conditions": "QD, dose not given, 2 h, geometric mean, cycle 1 day 50", "plasma concentration": "64400 ng/mL"}
{"note": "Some of these lines once more (block 1):"}
{"Structure (SMILES)": "CC1(C)CNc2cc(NC(=O)c3cccnc3NCc3ccncc3)ccc21", "inhibition [%]": 53.9}
{"Structure (SMILES)": "CCN(CC)c1ccc(Nc2nc(-c3c(C)nc4ccccn34)cs2)cc1", "inhibition [%]": 96.8}
{"Structure (SMILES)": "CN1CCN(c2nccn3c(-c4ccoc4)cnc23)CC1", "inhibition [%]": 21.1}
{"Structure (SMILES)": "Nc1ccccc1NC(=O)CSc1nc2ccccc2s1", "inhibition [%]": 17.1}
